Experimental data collected from several papers.
Numbered parts are unrelated; each lists some results of a single study. Positions count from the first letter of the parent shown.
UniProt P34969, sequence (whole entry, looked up): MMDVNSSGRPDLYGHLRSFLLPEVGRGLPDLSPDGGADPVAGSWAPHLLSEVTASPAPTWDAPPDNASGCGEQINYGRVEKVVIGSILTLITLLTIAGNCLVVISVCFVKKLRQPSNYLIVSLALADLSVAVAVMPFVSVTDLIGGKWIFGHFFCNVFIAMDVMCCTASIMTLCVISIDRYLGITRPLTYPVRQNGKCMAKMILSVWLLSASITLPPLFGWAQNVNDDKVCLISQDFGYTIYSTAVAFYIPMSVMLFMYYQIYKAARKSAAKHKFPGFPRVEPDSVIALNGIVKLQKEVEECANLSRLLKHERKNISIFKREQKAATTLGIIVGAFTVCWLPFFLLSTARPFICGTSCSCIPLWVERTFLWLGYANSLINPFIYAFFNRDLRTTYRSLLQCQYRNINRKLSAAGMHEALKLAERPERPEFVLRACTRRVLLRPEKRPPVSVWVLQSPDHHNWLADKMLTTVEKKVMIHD

Sample 1 — target: inorganic phosphate, free oxyanion; technique: microfluidic competitive inhibition; matrix: in vitro, cell-free expressed; tested at: not given; reading: lower = stronger binding
Notes: derived from inhibition constants, unchanged parent 615000 nM
Parent: PafA, mature enzyme, eGFP fusion (Elizabethkingia meningoseptica, UniProt Q9KJX5); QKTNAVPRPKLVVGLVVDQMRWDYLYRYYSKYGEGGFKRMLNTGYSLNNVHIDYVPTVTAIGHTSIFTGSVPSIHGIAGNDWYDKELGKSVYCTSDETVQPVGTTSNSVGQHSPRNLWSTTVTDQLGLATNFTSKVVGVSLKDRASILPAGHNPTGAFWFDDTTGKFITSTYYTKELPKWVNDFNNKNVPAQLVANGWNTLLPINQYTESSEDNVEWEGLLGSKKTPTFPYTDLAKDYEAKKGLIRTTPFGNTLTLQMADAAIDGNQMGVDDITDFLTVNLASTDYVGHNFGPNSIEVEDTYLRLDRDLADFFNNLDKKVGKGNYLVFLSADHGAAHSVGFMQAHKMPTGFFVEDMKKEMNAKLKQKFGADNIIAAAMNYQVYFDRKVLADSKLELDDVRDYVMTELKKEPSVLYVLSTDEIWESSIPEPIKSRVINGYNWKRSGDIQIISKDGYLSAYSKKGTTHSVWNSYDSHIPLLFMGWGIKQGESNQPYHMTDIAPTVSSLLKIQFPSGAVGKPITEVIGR
| Change | phosphate dissociation constant [µM] |
| --- | --- |
| S134G | 576 |
| Y325G | 511 |
| A362G | 627 |
| V403G | 574 |
| K31V | 545 |
| S330V | 773 |
| K89V | 595 |
| G488A | 517 |

Sample 2 — observed: binding; technique: phage display NGS; form: peptide; relative to: input library
Target: UDP-N-acetylglucosamine--peptide N-acetylglucosaminyltransferase 110 kDa subunit (OGT, Homo sapiens, UniProt O15294)
UniProt O15294, sequence (whole entry, looked up): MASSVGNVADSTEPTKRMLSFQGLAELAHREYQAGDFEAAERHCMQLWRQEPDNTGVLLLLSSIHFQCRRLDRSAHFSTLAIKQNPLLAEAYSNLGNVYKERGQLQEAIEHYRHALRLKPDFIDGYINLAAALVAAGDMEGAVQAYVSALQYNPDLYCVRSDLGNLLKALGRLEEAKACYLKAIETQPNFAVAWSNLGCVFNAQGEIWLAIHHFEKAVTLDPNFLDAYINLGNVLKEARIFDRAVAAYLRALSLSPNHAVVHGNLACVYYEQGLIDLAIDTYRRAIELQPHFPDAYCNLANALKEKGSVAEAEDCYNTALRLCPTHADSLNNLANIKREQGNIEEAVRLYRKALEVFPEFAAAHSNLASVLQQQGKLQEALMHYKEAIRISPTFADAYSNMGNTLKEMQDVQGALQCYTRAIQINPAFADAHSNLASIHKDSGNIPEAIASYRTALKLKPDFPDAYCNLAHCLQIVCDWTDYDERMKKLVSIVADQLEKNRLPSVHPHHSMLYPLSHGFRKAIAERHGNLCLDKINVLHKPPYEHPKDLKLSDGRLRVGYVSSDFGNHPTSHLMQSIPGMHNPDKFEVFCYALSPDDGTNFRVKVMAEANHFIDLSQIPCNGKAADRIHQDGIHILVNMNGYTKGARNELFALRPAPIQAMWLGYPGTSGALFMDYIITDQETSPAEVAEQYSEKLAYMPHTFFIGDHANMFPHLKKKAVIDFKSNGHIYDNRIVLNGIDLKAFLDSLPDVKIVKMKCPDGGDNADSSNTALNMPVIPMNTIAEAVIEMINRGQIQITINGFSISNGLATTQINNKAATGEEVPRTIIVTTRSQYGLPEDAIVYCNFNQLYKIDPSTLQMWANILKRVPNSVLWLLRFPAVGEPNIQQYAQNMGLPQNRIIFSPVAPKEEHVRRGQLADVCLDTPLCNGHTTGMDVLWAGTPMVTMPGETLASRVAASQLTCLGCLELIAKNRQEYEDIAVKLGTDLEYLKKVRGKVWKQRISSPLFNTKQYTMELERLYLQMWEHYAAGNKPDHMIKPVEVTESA
| Molecule | minimum log2 enrichment ratio |
| --- | --- |
| HRDLHFHTSWNYHRI | 1.86 |
| HVMHYHYQHGYTQP | 2.59 |
| TVQHQRYYMHWKPHH | 2.78 |
| HQRHGQHQQVFFHID | 3.23 |
| HTRADFHHFHHDVEQ | 2.59 |
| VLWPPYTYHHNHHRI | 5.81 |
| ATWHPYHHGHEYIV | 3.15 |
| SFPHRVHHEHSYYEH | 3.15 |

Sample 3 — organism: Sarcocystis neurona; observed: parasite growth; tested at: 10 µM; notes: secondary screen
| Structure (SMILES) | inhibition [%] |
| --- | --- |
| O=C(O)C(Cl)Cl | -20.8 |
| Oc1ccc2c3c1O[C@H]1[C@@H](O)CC[C@@]4(O)[C@@H](C2)N(CC2CCC2)CC[C@]314 | -47.1 |
| C[C@]12CC[C@H]3[C@@H](CCC4=CC(=O)CC[C@@H]43)[C@@H]1CC[C@@H]2O | 0.5 |

Single results of other studies
| Structure (SMILES) | tested on | test | test system | conditions | endpoint | value |
| --- | --- | --- | --- | --- | --- | --- |
| Cc1c(N2CCNCC2)nc2ccc(Br)cc2c1C(=O)NC[C@H](CCC(=O)O)c1ccccc1Cl | HTR7 (Homo sapiens, UniProt P34969) | ligand displacement | – | 10 µM | inhibition | 13% |
| COc1ccc2c(c[n+](C)c3c4cc5c(cc4ccc23)OCO5)c1OC | – | – | mouse, microsomes or S9 | 2 µM, 0.5 h | remaining compound | 69.8% |
| C[C@]12C=CC(=O)C=C1CC[C@@H]1[C@@H]2CC[C@@]2(C)[C@H]1CC[C@]2(C)O | HaCaT | – | – | 100 µM, 60 h | viability | 34.6% |
| O=C1CCC(N2Cc3c(ccc4c3OCC43CCN(Cc4ccccc4)CC3)C2=O)C(=O)N1 (centres unmarked) | – | – | mouse ICR male, plasma | oral, 3.0 mg/kg | oral bioavailability | 108% |

Excerpt of the above (sample 1):
| Change | phosphate dissociation constant [µM] |
| --- | --- |
| K31V | 545 |
| Y325G | 511 |
